Results of several laboratories.
Numbered parts are unrelated; each lists some results of a single study.

Series 1 — method: RNA Bind-n-Seq; form: RNA; medium: in vitro; concentration: 365 nM; baseline: no-protein control; direction: higher = stronger binding
Target: RNA binding protein fox-1 homolog 2, RRM domain, GST-SBP tag (RBFOX2, Homo sapiens, UniProt O43251-10, residues 100-194)
Notes: natural RNA segment, single round, ends assumed
All sequences stand within: GGGAGUUCUACAGUCCGACGAUC … UGGAAUUCUCGGGUGCCAA
Target sequence (chain): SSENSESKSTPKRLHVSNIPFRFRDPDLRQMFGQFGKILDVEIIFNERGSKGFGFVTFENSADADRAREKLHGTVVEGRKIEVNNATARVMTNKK
Oligonucleotide | RBNS enrichment (R)
UUGUGUUUAUGUCAUGGGUCAUUUUUUUUUAGUUACAGAAGCAGUUGUGUUAAUAUUUAGAAGAAGAUGUAUAUCUUCCAGAUUUUGUUAUAUAUUUGGCAUAAAAUACG | 0.818
GUAUAGAAGUCUUCAUGAAAUGCUAUGUCAUUUCAUGUCCUGUGUCAGUUUAUGUUUUGGUCCACUUUUCCAGUAUUUUAGUGGACCCUGAAAUGUGUGUGAUGUGACAU | 0.538
GGCAGCAGAAGGGACUGGUGUAUCCUUAUAGACACUUUUCUAUGAACUCUUCAAAAAUGGUCACAGAAUGCCUUUUAAAAUACUGUAUAUAGUCUUCACUGCUUCACCUU | 0.627
UUAUUUUAGAUCCCAGAGAAAUCAGGUGUGAUUAGUUCUCCAGGCAUGAAUGCAUCGUCCCUUUAUCUGUAAGAACCCUUAGUGUCCUGUAGGGGGACAGAAUGGGGUGG | 1.3
GUUACUUGCGGUCUUUUUAAAUUGAGGAGCCCCACUUCCACUGUCCACCCCUUGUCUUUGUGUGUCAGGUGAUCAUUGAAAUCGUAUCUUGAGCUUGAAUUCACUUCUCU | 0.812
CAAGUCCCCAUCAUUGCCGGGAGUGUGGAUUCUAGCAGCAGAGCUGGAAACGAUGAGAUUCCACAGACCCCCUAUGGGGGACCCACAACCCAAGACCGCAGACUGGGUGU | 0.384
AAGAGCCAAAGAUAACCACAGCCACAGCCUGUGGAGACCAGGGUUGGAAGCCAGGUGCAGGGCCAGGCAUCUGCAUUGUGGGAUGUUAAUGGCACUUUUGUCUUGUAGCU | 0.561
UCAUUAUUCACUUAUUAGCAAGAAGGUAGCAUUAUCAUAAAGGAUUAGAUGACUUAAGUUAGCUAUAGGUUCAAGACCUGGACUAAAGUAUUACUUGGAAAUUCUGAGUA | 0.36
UAAUGUACUUAGGCAAGCCACUUCCCAUCUCUGGGCCUCGUCUUUCCUCCCUCUAAAAUCAAAGAGCUGAAUUAUGUGAUCCUUGAGGUCUCUUCCACUUAUAAUACCAA | 0.29
ACCUGUUAUUACCAUUAGCAUUCUGGUUUUGACAUCAGCAUUAGUCACUUUGAAAUGUAACGAAUGGUACUACAACCAAUUCCAAGUUUUAAUUUUUAACACCAUGGCAC | 1.43
GUUUUUUUUUUUAAGACAAAAAAGAUGUUUAAAGACCAAAAACUGUGCUGAGAAAGUAUGCCCCACCUAUCUUUGGUAUAUGAUAGGUUACAUAAAAGGAAGGUAUUGGC | 0.372
GAAGGAAGCGUCUACAGAGAACGGUUUCCAACAUCCAUCGCUGCAGCAGACGGUGUCCCUCAGUGACUUGAGAGACAAGGACAAGGAAAUGUGCUGGGCCAAGGAGCUGC | 0.44

Series 2 — method: protein-binding microarray; form: double-stranded DNA, one strand shown; medium: in vitro; concentration: 2540 nM top; notes: 60-bp whole probe; together with: salmon DNA 0.4 mg/ml; baseline: random background probes; direction: higher = stronger binding; all sequences stand within: GCCTAGCAC … GTCTTGATTCGCTTGACGCTGCTG
Target: Interferon regulatory factor 3, full length, phosphomimetic (IRF3, Homo sapiens, UniProt Q14653, residues 1-427, S386D/S396D/S398D/S402D/T404D/S405D)
Residues (chain): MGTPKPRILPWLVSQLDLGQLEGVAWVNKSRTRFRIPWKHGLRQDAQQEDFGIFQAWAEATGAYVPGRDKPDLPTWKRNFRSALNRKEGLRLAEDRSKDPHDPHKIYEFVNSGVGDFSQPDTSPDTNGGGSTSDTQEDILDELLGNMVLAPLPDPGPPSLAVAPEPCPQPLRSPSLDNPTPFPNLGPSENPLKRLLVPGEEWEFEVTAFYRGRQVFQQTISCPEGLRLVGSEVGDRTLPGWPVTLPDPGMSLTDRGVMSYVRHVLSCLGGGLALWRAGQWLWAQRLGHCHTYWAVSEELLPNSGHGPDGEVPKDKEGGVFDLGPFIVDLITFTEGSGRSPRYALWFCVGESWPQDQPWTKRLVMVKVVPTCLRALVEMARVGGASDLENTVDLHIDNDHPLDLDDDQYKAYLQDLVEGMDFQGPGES
Oligonucleotide | fitted relative affinity
TCACCTCTCCCCTCTTGTACTGTGCTA | 0.7 z-score
GGGGAGCAGGGTGGCCCTGTGTGCTAG | -1.41 z-score
TTAGGTATCTGGTTTCGGTTAGTGCTA | 3.9 z-score
TTAGGTTTCATTTCCCTTTAGTGCTAG | 6.44 z-score
GACGAACTGAGACTGGAAACGTGCTAG | 0.225 z-score
TCAGCTGTCCTTTGCAAACTGTGCTAG | 0.0841 z-score
TTAGGACTGAGACTGGGTTAGTGCTAG | -0.716 z-score
TTAGGTCTCGGTCTCAGTTAGTGCTAG | 0.878 z-score
TTCGGTTTCGACTTTCGGTTAGTGCTA | 4.72 z-score
TTAGGTTTCCGTTTCCTTTAGTGCTAG | 9.75 z-score
TCAATTCTCACTGCAGCACTGTGCTAG | 0.565 z-score
CCTTGTACGTCGTTTCCCAAGGTGCTA | 1.74 z-score
ATTGCTTCCTCTTTCTCTGCGTGCTAG | 1.82 z-score
GACGATATCATTCTCGAGACGTGCTAG | 1.76 z-score
TTCGGTTTCGGACTGGGTTAGTGCTAG | 5.15 z-score
TTAGATTTAAGTCTCGATTAGTGCTAG | -0.0604 z-score

Series 3 — method: protein binding microarray; form: double-stranded DNA, one strand shown; medium: in vitro; concentration: not given; baseline: not given; direction: higher = stronger binding
Target: Histone acetyltransferase KAT6A, winged helix 2, GST fusion (KAT6A, Homo sapiens, UniProt Q92794, residues 85-181)
Notes: 8-mer, flanks averaged, mean of 2 arrays, mostly near background
Target sequence (chain): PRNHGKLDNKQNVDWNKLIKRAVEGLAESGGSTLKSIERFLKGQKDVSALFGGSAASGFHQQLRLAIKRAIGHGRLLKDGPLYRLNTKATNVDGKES
Oligonucleotide | E-score
GTAGATAA | 0.101
AAGAGTAG | -0.11
AACACCGA | -0.067
CTTGACAC | -0.0327
ATAAATTA | 0.168
ATAATTGC | 0.00938
GTAACACA | -0.155
GCACAGAA | 0.107
AATAAAGA | 0.116
ACTAAATA | 0.0228
ACCGGCAA | 0.0142
CCTCACCG | -0.0512
GGAAGAAC | 0.129
CCGTGGCG | 0.0757
GACGTGCC | -0.125
CGGGTCTC | -0.0199
ACGGGATA | -0.0842
GGAAGCCC | 0.103

Series 4 — method: RNA Bind-n-Seq; form: RNA; medium: in vitro; concentration: 200 nM; notes: whole 134-nt RNA, ends assumed; together with: 150 mM LiCl; baseline: input library; direction: higher = stronger binding; all molecules: 7-deaza-guanosine replaces G
Target: Fragile X messenger ribonucleoprotein 1, C-terminal low-complexity region (Fmr1, Mus musculus, UniProt P35922)
All sequences stand within: GGGAGUUCUACAGUCCGACGAUC … UGGAAUUCUCGGGUGUCAAGG
Oligonucleotide | log2 enrichment
CAAGUCCUGUGCUACACAUCGUAUGUACCGAAUCGGGGUUUGGUUUGGGGUUUGGAAAGUAUUAUGUUACGCCGUUCGGAUCUGCACUUC | -2.15
AAGUCCUGUGCUACACAUCGUAUGUACCGAAUCGGUGGAAAAAAAGGAAAAAAAGGAAAGUAUUAUGUUACGCCGUUCGGAUCUGCACUU | -1.83
UGAUGGGACAACACCCGAAAGGAUAGCACAAAUAACAGGACCUCCAGACCGAUGUCAACAUGCUGCAGAAAUUAUUACAGACCUUCUUCG | 1.74
CACAGACAACACGCACCCACACAGACACAGAGGGAAGGGGUUGGGAUGGGGACAGGGUGCACAGCAGGGCGGGGUAGGACCCCAGACCCU | -1.13
CCUGUGCUACACAUCGUAUGUACCGAAUCGGGGAAAGGGGUUUUUGGGGUUUUUUUGGGGAAAGUAUUAUGUUACGCCGUUCGGAUCUGC | 0.326
ACCAUGCAGGUGGGCAUCUUUGGGAAGUGGGGCAAGGGGGGGAUAGGGAAAGGGGUAACACUUUGGGAACAGGUGGUCCCAGGUCGUUUC | 0.763
AACAGACAACACGCACCCACACAGACACAGAGGGAAGGGGUUGGGAUGGGGACAGGGUGCACAGCAGGGCGGGGUAGGACCCCAGCCCCU | -0.163
UAACUUUAGAGGAGGAUCUGAUGGAUUUGGCAGUGGACGUGGAUUUGGGGAUGGCUAUAAUGGGUAUGGAGGAGGACCUGGAGGUGGCAA | 0.0716
UUUCACAGAGAAGCAAAUGCUGGCACAAGGAUACCCUGCUUACACGACAUCGUGCGCCUGGCUGGGGUACUCAGAUGACACGUUGAAGCA | -0.773
AGUCCUGUGCUACACAUCGUAUGUACCGAAUCGGGUGGGAAAAAGGGUUUUUUUGGGAAAGUAUUAUGUUACGCCGUUCGGAUCUGCACU | -1.97
UGGCGCCGUUCGACACCAGGCGGAUCCGCUCUGCAGCACGAACCCAUCUCCAGCCGCAGCCGCAGCCGCCGCCCGGGCCGAGGAGCAGCC | 0.251

Series 5 — method: RNA Bind-n-Seq; form: RNA; medium: in vitro; concentration: 20 nM; notes: 6-mer, flanks averaged, single round; together with: 150 mM KCl; baseline: input library; direction: higher = stronger binding
Target: TAR DNA-binding protein 43, full length, His tag (TARDBP, Homo sapiens, UniProt Q13148, residues 1-414)
Oligonucleotide | 6-mer enrichment (R)
CGUACC | 0.634
GUUUUA | 0.681
UUGGGG | 3.44
CUUUGC | 0.62
UUUUGG | 0.864
CGACUC | 0.61
CUAGGU | 0.787
GGUGUG | 3.42
UGUAAC | 0.65
CGCUUC | 0.587
UAAGUU | 0.597
CUCUGA | 0.589
CCGUCU | 0.587
AGUCGC | 0.797
UACUUG | 0.633
CCGGAU | 0.767
GGCAGG | 4.32
CUACUC | 0.551
UCACAG | 0.676

A few entries again (series 2):
Oligonucleotide | fitted relative affinity
TTAGGTTTCCGTTTCCTTTAGTGCTAG | 9.75 z-score
TCAATTCTCACTGCAGCACTGTGCTAG | 0.565 z-score
CCTTGTACGTCGTTTCCCAAGGTGCTA | 1.74 z-score
ATTGCTTCCTCTTTCTCTGCGTGCTAG | 1.82 z-score
GACGATATCATTCTCGAGACGTGCTAG | 1.76 z-score
